# Published values of several laboratories.
# Every numbered part comes from another study and shows a few of its results, in no order. Substitutions count along the parent as printed.

# Study 1
# Target: CREB3L1, bZIP domain (human)
# Technique: DHFR protein complementation
# Sample: yeast
# Setting: single substitutions, most at no-binding floor
# Reference: wild-type JUN-FOS pair
# Direction: higher = stronger binding
# Starting sequence: JUN, bZIP domain (human); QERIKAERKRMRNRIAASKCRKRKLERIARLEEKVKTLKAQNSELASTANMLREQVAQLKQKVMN; partner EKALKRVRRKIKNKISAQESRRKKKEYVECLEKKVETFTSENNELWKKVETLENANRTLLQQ
Variant,binding fitness [natural log]
V35Q,-1.53
A46S,-1.38
S47T,-1.49
L45A,-1.5
M51F,-1.46
L38I,-1.47
L45T,-1.4
E32M,-1.48
E54S,-1.43
L31E,-1.53
V35M,-1.31
M51S,-1.39
E32C,-1.39
A29K,-1.26
N42Y,-1.51
A46R,-1.11
A40L,-1.46
I28S,-1.51
R30F,-0.984
R30W,-1.41
A49R,-1.46
T48E,-1.44
N42A,-1.44
E54T,-1.5
L38G,-1.48

# Study 2
# Target: RNA binding protein fox-1 homolog 2, RRM domain, GST-SBP tag (RBFOX2, Homo sapiens, UniProt O43251-10, residues 100-194)
# Technique: RNA Bind-n-Seq
# Form: RNA
# Sample: in vitro
# Tested at: 365 nM
# Setting: natural RNA segment, single round, ends assumed
# Reference: no-protein control
# Direction: higher = stronger binding
# Shared flanks, not repeated: GGGAGUUCUACAGUCCGACGAUC … UGGAAUUCUCGGGUGCCAA
# Target sequence (chain): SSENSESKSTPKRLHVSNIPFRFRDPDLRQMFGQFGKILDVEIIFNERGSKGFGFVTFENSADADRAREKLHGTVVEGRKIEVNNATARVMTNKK
Oligonucleotide,RBNS enrichment (R)
AGAUGAAAAAGGAGAGACAUGGAAAGGGAGACAGCCAGGUGGCACCUGCAGCGGCUGCCCUCUGGGGCCACUUGGUAGUGUCCCCAGCCUACCUCUCCACAAGGGGAUUU,0.306
AGAUGGUCAAAACCCAGUUUUCCCUCUGGGAGCCUAAACCAGGCUGCAUCGGAGGCCAGGACCCGGAUCAUUCACUGUGAUACCCUGCCCUCCAGAGGGUGCGCUCAGAG,0.193
CGUCUGUCUCUUGGCUAUUUUAACCUAAAAUAACCAGUCUAGUUCUAUCCCCUCUUCUUGUAAAGCACAAGCCGGGGGCCGUGAGUGUAUUACAACCCAACGGCGGCCCA,0.192
CACCCUUCGGACCCGCUGCCCCUGUGGGAGCACCCUGCUUCAGGAAGCCUCCCUCCCUCCCUCUGCCUCCCUUCCCCAGGACACCAAGAGCGCCCUCUCCUGAGCCCUGG,0.533
AAUACCUUCAGGUCUGCCAUGCCAUCAGCCAGCCUGGUUCCUUCUGAGGGCAACCUGGGUCUGGUGGUAUUUCUGGUGGUGCAGAUGAGGGGAGGGUGGGGCCCUCGCUG,0.479
UACUAUACUCUUGUUUGUAAGAAUAUAUUUUCCUUAUUGUUGGAGUCUCCAGAGGUUAUUGGAAGGAAUAAAAAAGGACAUGUUUUCUAACGAAACUCUCAAAUUCAUUA,0.446
UUUGUUCUACAUCAUUCUCUCUUGAUCAAGAAAUGAAAUUUCUUAAUCCUUGAAUAUUAGUAAGGUCCAGGAAAGUUACCAGCUGAUGGCGGAGUGAAGCUCAGCUCGGU,0.472
UUCUAUUAACAUGAUACAAAGGAUGAUGAUUGUAAGUGUUUACUGACUGGCAGCUUUUAUUUCAGUAUUAGCACAGCGUCUUGCCAGUGUUGGAGGCCAUGUAUUAUUUC,2.2
CAAUAAAUGGGAGGAAUGGGUGUAGAGUUGAUGCAGCCAAGAAUGUCCGUCCUCUGGGCGGCACAAGUCCCGCAGGCUCUGUGUCUGUUAGGUGAUGGAGCCCAUUCAAG,0.269
AUGUUGCUGAACAUACAUACACCUCCGAAAUGCCAGUUCUGCAUUCUACACAUAUGCUUUCUGGCAGCGAGUUUAUUGCCAGAUUUUAAACAGGGAGUUAUGUGGUGCUU,0.408
AUUGUAGGGGUGCAGUUUGUCCAACUCUUUCCAACAGCCCAUUAGACACCACUAGCUGGAUAUUUCACAGGCAUCUUUGAUUCAAUAUGUCCAAAGUGGAACUCUCCAUC,0.462
AAGUUGAUUAUCUUCUCUUGAUAUCUUGGUUAAAACUGGCCACAAGAUAAACCAUUUGGAUAUAUUUGAUUUUGUCAUAACAUUUGUAAAGUAUAUGUUUCUCAUGAGAC,0.472

# Study 3
# Target: Prothrombin, mature alpha-thrombin (F2, Homo sapiens, UniProt P00734)
# Technique: aptamer microarray, sandwich
# Form: DNA with 2'F-ANA
# Sample: in vitro
# Tested at: 200 nM
# Setting: whole 15-mer aptamer, many near background
# With: Cy3 exosite-II aptamer, 400 nM
# Direction: higher = stronger binding
# Oligonucleotide: GGTTGGTGTGGTTGG
Modification,mean fluorescence intensity
2'F-ANA at 1 2 5 10 12 13 15,143 a.u.
2'F-ANA at 1 2 3 4 7 8 11 12 13 14 15,81.8 a.u.
2'F-ANA at 2 3 5 9 10 12 14 15,51.9 a.u.
2'F-ANA at 1 8 9 10 12 14,48.2 a.u.
2'F-ANA at 3 5 6 8 10 13 14,48.5 a.u.
2'F-ANA at 1 3 5 6 9 11 12 13 15,73 a.u.
2'F-ANA at 2 3 4 5 9 10 14,63.7 a.u.
2'F-ANA at 5 7 9 10 11,45.6 a.u.
2'F-ANA at 1 3 4 11,209 a.u.
2'F-ANA at 1 4 5 6 7 8 10 11 13 14,51.5 a.u.
2'F-ANA at 1 2 4 6 9 10 11 12 14,94.6 a.u.
2'F-ANA at 2 3 5 6 8 12 13 15,195 a.u.
2'F-ANA at 2 3 4 5 7 9 12 13 14,50 a.u.
2'F-ANA at 1 4 5 6 8 10 11 14 15,53.8 a.u.
2'F-ANA at 3 4 6 7 8 9 12 14 15,303 a.u.
2'F-ANA at 1 4 6 8 9 13,76.9 a.u.
2'F-ANA at 1 3 5 10 11 15,49.8 a.u.
2'F-ANA at 1 2 3 7 8 13 14,91.3 a.u.
2'F-ANA at 2 6 8 15,404 a.u.
2'F-ANA at 3 5 6 7 8 14 15,56.5 a.u.

# Study 4
# Target: Histone acetyltransferase KAT6A, winged helix 2, GST fusion (KAT6A, Homo sapiens, UniProt Q92794, residues 85-181)
# Technique: protein binding microarray
# Form: double-stranded DNA, one strand shown
# Sample: in vitro
# Tested at: not given
# Setting: 8-mer, flanks averaged, mean of 2 arrays, mostly near background
# Reference: not given
# Direction: higher = stronger binding
# Residues (chain): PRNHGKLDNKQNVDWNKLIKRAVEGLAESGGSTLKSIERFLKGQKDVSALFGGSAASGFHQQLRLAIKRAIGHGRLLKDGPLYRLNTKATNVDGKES
Oligonucleotide,E-score
ATGTGTAG,-0.295
CGAGTAGA,-0.0385
ATCCTATC,-0.138
CCACTACA,-0.235
GAGACCTC,0.0307
CATCCTGG,0.0347
ACGGTAGC,0.0427
CGGTGTTA,-0.0515
ACGTAGTC,-0.13
CAAGATAG,-0.129
CACTACCC,-0.113
GCTCATCA,0.0426
ATAAACAC,0.0222
CGCCACCA,-0.0391
CCAAGACC,-0.0318
CCTGGTAG,-0.0267
ACTGGGTC,-0.115
CGTTTACC,-0.000775
CTACCACC,-0.208
AAGCCTTA,-0.188
GAGAGATC,0.0217
AAGGCTGT,-0.161
GAAGGCTA,0.053
CTCGAGAC,0.0878
GCGATCGC,0.206

# Study 5
# Target: Centromere-binding protein 1, full length, His-tagged (CBF1, Saccharomyces cerevisiae, UniProt P17106, residues 1-351)
# UniProt P17106, sequence (whole entry, looked up): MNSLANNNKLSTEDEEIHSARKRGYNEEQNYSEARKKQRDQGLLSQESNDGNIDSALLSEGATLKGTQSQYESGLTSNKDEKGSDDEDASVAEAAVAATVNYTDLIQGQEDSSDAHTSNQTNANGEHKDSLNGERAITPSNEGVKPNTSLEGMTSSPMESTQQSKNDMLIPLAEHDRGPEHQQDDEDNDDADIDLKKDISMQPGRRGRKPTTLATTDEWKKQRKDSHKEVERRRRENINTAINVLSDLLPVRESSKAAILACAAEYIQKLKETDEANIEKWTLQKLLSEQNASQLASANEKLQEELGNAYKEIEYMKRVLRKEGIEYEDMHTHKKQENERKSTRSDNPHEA
# Technique: competition protein-binding microarray
# Form: double-stranded DNA, one strand shown
# Sample: in vitro
# Tested at: 2 µM
# Setting: whole 60-bp probe, lowest competitor level
# With: Pho4 competitor, 0.05 µM
# Direction: higher = stronger binding
# Shared flanks, not repeated: … GTCTTGATTCGCTTGACGCTGCTG
Oligonucleotide,fluorescence intensity [a.u.]
GCGCGAAGTTTTGCTGACGTGCCAGTACCTGGGCCA,61.3
CACAGCTCCTGCTGACATGTGCCACTCCTGGAATGC,136
TGGCCTAAGATGAAGGTCGTGCTTTTTGTTCAATTG,63.1
TTTGTGCAGCACAATCACCTGTGGTTACTGGAGAAT,81.2
CTTTCCCGATCTTGAGGTGTGGGTGTAGCACATTTG,71.1
AAATTACTAAGTTGCATTGTGGGTGACGCCGTATGA,77.5
CAGCCACTGGTGCTAAACGTGCTAAATTCAGAAAGA,85.9
CGTCCTAGTGATTGTGGGGTGGGTGCCATGAGGAAG,86
TTCCTGTAACACTGGCACGCTTGAAGTGAGCATAAA,71.4
GCACCACACAGGTTTTACGTGCGGACAAGACCGTTG,60.6
AAAGCGGTAATTTGTCACCTAACTTCACATATCTAT,71
GAAGGTTCCCGGTCCGTTGTGATGGGAAGATCTGAC,61
ATCTTGTGAAACTCCGTCGTGCTTTGGATAGAGCCT,84
CTTTCCCGATCTTGTCACTCTACTTTAGCACATTTG,73.1
AAAGCGGTAATTTTTCACGTGAATTCACATATCTAT,907
GGCGGGTTTCTTCGGCACGCACAGGAGGCACCCCAG,65.4
CATACCCAACCTTTGCACGTGTTTTAAGATATTTGT,2530
GTCCACTCCCGCACTCACGTGTTCCCGCCTTGCCCT,1450
TCCGATGGAAACGAGCATGTGGCCGATAGATCTAAA,106
TGCGCAACAACTTGTAGAGTGGGTGTATGTCTAGAA,57.5
AAAGCGGTAATTTGTCACATCACTTCACATATCTAT,83

# Study 6
# Target: Sal-like protein 4, full length isoform B (SALL4, Homo sapiens, UniProt Q9UJQ4-2, residues 1-616)
# Technique: universal PBM
# Form: double-stranded DNA, one strand shown
# Sample: in vitro
# Tested at: not given
# Setting: 8-mer, flanks averaged, mean of replicates
# Direction: higher = stronger binding
# Residues (chain): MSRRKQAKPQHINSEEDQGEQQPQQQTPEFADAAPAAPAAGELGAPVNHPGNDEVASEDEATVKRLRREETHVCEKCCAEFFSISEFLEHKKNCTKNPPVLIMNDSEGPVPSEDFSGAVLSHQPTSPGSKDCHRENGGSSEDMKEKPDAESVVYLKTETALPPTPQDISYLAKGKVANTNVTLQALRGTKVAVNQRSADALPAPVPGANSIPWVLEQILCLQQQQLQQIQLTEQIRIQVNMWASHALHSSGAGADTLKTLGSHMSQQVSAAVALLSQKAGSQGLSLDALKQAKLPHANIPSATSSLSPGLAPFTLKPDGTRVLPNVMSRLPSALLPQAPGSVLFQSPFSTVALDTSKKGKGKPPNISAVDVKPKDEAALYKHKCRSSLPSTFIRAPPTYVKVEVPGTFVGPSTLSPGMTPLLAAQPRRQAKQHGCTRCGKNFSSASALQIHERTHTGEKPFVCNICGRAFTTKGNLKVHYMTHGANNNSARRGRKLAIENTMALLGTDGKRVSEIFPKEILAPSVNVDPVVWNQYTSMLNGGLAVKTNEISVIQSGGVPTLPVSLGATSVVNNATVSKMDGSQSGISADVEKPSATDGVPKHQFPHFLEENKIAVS
Oligonucleotide,E-score
AGGACATC,-0.152
CAAGCAGG,-0.221
GTCGCGAA,-0.117
GCTGAACC,-0.25
GAAGTGGC,-0.16
CTAGGGAG,-0.216
CTTGAAGA,0.0207
CATTCCGA,0.0765
AAAGTCTT,0.0276
GAATATCA,0.228
ACTCATTG,-0.00487
TCGATCGA,-0.0651
AAACCATC,0.0791
AGTACGCG,-0.00262
AAAGGCGC,-0.21
AAATGAAA,0.318
GGTTTCTA,0.00516
AGTGCTCA,-0.106
GCAGTAAA,0.0358
TTCTGCAA,0.137
CAATATGC,0.162
CTTATTGA,0.262
GGTGCAGA,-0.126
GCCTCCGC,-0.292
CAGTGGTC,-0.2

# A few entries again (study 3):
Modification,mean fluorescence intensity
2'F-ANA at 2 3 4 5 9 10 14,63.7 a.u.
2'F-ANA at 5 7 9 10 11,45.6 a.u.
2'F-ANA at 1 3 4 11,209 a.u.
2'F-ANA at 1 4 5 6 7 8 10 11 13 14,51.5 a.u.
2'F-ANA at 1 2 4 6 9 10 11 12 14,94.6 a.u.
2'F-ANA at 2 3 5 6 8 12 13 15,195 a.u.
2'F-ANA at 2 3 4 5 7 9 12 13 14,50 a.u.
2'F-ANA at 1 4 5 6 8 10 11 14 15,53.8 a.u.
2'F-ANA at 3 4 6 7 8 9 12 14 15,303 a.u.
2'F-ANA at 1 4 6 8 9 13,76.9 a.u.
